Experimental data of several laboratories.
Every numbered part comes from another study and shows a few of its results, in no order. Several values in a cell are separate wells, animals, samples, runs or records.

Series 1 — method: universal PBM; molecule type: double-stranded DNA, one strand shown; matrix: in vitro; concentration: 600 nM; reading: higher = stronger binding; endpoint: E-score
Target: Sal-like protein 4, full length isoform A (SALL4, Homo sapiens, UniProt Q9UJQ4, residues 1-1053)
Sequence of UniProt Q9UJQ4 (whole entry, looked up): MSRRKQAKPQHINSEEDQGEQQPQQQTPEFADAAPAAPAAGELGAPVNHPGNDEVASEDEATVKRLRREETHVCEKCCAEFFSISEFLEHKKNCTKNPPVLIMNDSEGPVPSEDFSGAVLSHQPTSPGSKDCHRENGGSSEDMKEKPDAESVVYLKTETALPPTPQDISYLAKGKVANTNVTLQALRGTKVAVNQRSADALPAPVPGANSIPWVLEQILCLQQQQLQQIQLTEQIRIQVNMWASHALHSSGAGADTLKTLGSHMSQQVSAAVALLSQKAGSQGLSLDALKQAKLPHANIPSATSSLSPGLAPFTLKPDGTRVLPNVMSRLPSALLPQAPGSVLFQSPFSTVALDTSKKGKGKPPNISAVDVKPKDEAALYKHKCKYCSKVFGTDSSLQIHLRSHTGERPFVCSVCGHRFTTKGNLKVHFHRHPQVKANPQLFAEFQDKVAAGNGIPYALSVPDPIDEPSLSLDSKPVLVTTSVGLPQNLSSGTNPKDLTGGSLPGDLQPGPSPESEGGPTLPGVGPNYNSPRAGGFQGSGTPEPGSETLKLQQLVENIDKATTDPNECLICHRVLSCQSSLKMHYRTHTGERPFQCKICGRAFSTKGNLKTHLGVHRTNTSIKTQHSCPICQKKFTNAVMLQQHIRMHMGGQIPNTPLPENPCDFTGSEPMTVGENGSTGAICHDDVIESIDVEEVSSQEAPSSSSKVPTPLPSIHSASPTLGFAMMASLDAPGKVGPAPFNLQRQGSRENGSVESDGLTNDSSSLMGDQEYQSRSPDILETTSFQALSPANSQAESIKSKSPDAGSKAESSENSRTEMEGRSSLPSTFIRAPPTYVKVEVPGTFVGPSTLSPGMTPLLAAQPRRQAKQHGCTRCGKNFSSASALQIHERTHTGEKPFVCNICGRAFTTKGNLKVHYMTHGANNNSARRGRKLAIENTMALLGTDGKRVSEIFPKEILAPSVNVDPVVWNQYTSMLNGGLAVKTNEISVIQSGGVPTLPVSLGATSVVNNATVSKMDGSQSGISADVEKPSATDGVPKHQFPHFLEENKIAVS
Setting: 8-mer, flanks averaged, mean of replicates
Strand = AATATCGC; value = 0.192
Strand = CATCCAAG; value = -0.157
Strand = AGACGAGC; value = -0.157
Strand = CGGTCTCA; value = -0.0437
Strand = ATTTATAG; value = 0.355
Strand = CAGGGTAC; value = -0.203
Strand = GTAGCCGA; value = -0.215
Strand = CAGCGGTA; value = -0.0451

Series 2 — method: protein binding microarray; molecule type: double-stranded DNA, one strand shown; matrix: in vitro; concentration: not given; reference: not given; reading: higher = stronger binding; endpoint: E-score
Target: Histone acetyltransferase KAT6A, winged helix 1, GST fusion (KAT6A, Homo sapiens, UniProt Q92794, residues 1-85)
Setting: 8-mer, flanks averaged, mean of 2 arrays, mostly near background
Target sequence (chain): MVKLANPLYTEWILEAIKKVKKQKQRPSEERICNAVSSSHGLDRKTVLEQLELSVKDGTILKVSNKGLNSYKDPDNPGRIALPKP
Strand = CTCGCCAC; value = 0.0841
Strand = ATATTTCG; value = -0.163
Strand = ACGTAAGT; value = -0.0785
Strand = CGCCTACC; value = 0.211
Strand = ACACCCAG; value = -0.286
Strand = CAGCTCAC; value = -0.139
Strand = GGCGGATA; value = 0.362
Strand = CACGATGC; value = 0.0866

Series 3 — method: protein-binding microarray; molecule type: double-stranded DNA, one strand shown; matrix: in vitro; concentration: 940 nM top; setting: 60-bp whole probe; added: salmon DNA 0.4 mg/ml; reference: random background probes; reading: higher = stronger binding; endpoint: fitted relative affinity
Target: Interferon regulatory factor 5, full length, phosphomimetic (IRF5, Homo sapiens, UniProt Q13568-2, residues 1-514, S451D/S453D/S456D/S462D)
Shared flanks, not repeated: GCCTAGCAC … GTGCTAGGTCTTGATTCGCTTGACGCTGCTG
Strand = ATATATATATATACAGATAT; value = 0.535 z-score
Strand = CATCTCGGGCCGCCGGGCCG; value = -0.218 z-score
Strand = TTAGGTTTCCTTTTCTTTTA; value = 2.44 z-score
Strand = TTAGATTGCAGACTGGATTA; value = -0.278 z-score
Strand = GACGGTTTCCTTTCCATGAC; value = 1.88 z-score
Strand = GATGGTTTCGGACTGGGGAC; value = 7.27 z-score
Strand = GACGGTATCGTTATCCTGAC; value = 4.71 z-score
Strand = GACGGTTTCCTTTTCCGGAC; value = 2.45 z-score

Series 4 — mode: inhibitor; concentration: 20 µM; endpoint: inhibition
Target: Replicase polyprotein 1ab, nsp13 helicase (rep, Severe acute respiratory syndrome coronavirus 2, UniProt P0DTD1)
SMILES = [O-][S+](c1ccccc1)c1ccc2nnnn2n1 (centres unmarked); value = 40.3%
SMILES = CC[C@H](NC(=O)c1c(O)c(-c2ccccc2)nc2ccccc12)c1ccccc1; value = 14.6%
SMILES = O=C(Nc1cccnc1)c1cc(-c2ccnc(F)c2)ccc1OCc1ccccc1; value = 6.82%
SMILES = NC(=NCCCCCCN=C(N)/N=C(\N)Nc1ccc(Cl)cc1)/N=C(\N)Nc1ccc(Cl)cc1; value = 4.56%
SMILES = CCCCCOc1ccc(-c2ccc(-c3ccc(C(=O)N[C@H]4C[C@@H](O)[C@@H](O)NC(=O)[C@@H]5[C@@H](O)[C@@H](C)CN5C(=O)[C@H]([C@@H](C)O)NC(=O)[C@H]([C@H](O)[C@@H](O)c5ccc(O)cc5)NC(=O)[C@@H]5C[C@@H](O)CN5C(=O)[C@H]([C@@H](C)O)NC4=O)cc3)cc2)cc1; value = 7.43%
SMILES = CCCCCCCCCCOc1cc2c(O)c(C(=O)OCC)cnc2cc1OCC; value = 2.78%
SMILES = CCCCCCCCCCCCCCCCCCOP(=O)([O-])OC1CC[N+](C)(C)CC1; value = 11.5%
SMILES = CCOC(=O)N1c2ccc(C(F)(F)F)cc2[C@@H](N(Cc2cc(C(F)(F)F)cc(C(F)(F)F)c2)C(=O)OC)C[C@H]1CC; value = 2.29%
SMILES = CC(C)c1onc(-c2c(Cl)cccc2Cl)c1COc1ccc(/C=C/c2cccc(C(=O)O)c2)c(Cl)c1; value = 2.37%
SMILES = COc1cc(C=O)ccc1O; value = 6.74%
SMILES = CC(C)=CCc1c(O)cc(O)c2c(=O)c(O)c(-c3ccc(C(F)(F)F)cc3)oc12; value = -3.23%
SMILES = CCCCCOC(=O)Nc1nc(=O)n([C@@H]2O[C@H](C)[C@@H](O)[C@H]2O)cc1F; value = -1.03%
SMILES = CCn1c(-c2ccc(Cl)cc2)n[nH]c1=O; value = 11.4%
SMILES = CSc1ccc(OCc2ncc([N+](=O)[O-])n2C)cc1; value = 6.14%
SMILES = OB1OCc2cc(F)ccc21; value = -8.28%
SMILES = O=C(O)[C@H](Cc1ccccc1)NCc1ccc(Cl)cc1; value = 8.43%
SMILES = CC(C)(C)C(=O)NCCCC(=O)O; value = 1.43%
SMILES = OCC(CO)N[C@H]1C[C@](O)(CO)[C@@H](O)[C@H](O)[C@H]1O; value = 3.01%
SMILES = CC(C)C[C@H](NC(=O)OCC1c2ccccc2-c2ccccc21)C(=O)O; value = -2.46% and 0.9%
SMILES = CCCCCCOC(=O)CCC(=O)CN; value = 2.82%
SMILES = O=c1[nH]c2cc(C(F)(F)F)c(N3CCOCC3)cc2n(CP(=O)(O)O)c1=O; value = -2.88%
SMILES = C#C[C@]1(OC(C)=O)CC[C@H]2[C@@H]3CCC4=C[C@@H](OC(C)=O)CC[C@@H]4[C@H]3CC[C@@]21C; value = 0.24%
SMILES = COc1cccc(CCc2ccccc2OCC[C@@H]2C[C@@H](O)CN2C)c1; value = -2.02%
SMILES = NS(=O)(=O)c1cc(C(=O)O)cc(N2CCCC2)c1Oc1ccccc1; value = 6.19%

Further values, each from its own experiment
SMILES = CC(=O)NCCCS(=O)(=O)O; cell line = HEK-293T/ACE2; conditions = concentration not given, 16 (unit not given); how to read = reference: vehicle; endpoint = viability; value = 101%
SMILES = CC(C)(C)NC[C@H](O)COc1nsnc1N1CCOCC1; cell line = HEK-293T; test = pseudovirus infection, FDA-approved drug library screen; test system = VSV pseudotyped with SARS-CoV-2 spike; conditions = 10 µM, 16 h; how to read = reference: vehicle-treated; endpoint = GFP-positive cells; value = 123%

A few entries again (series 2):
Strand = CTCGCCAC; value = 0.0841
Strand = ACACCCAG; value = -0.286
Strand = ACGTAAGT; value = -0.0785
Strand = CAGCTCAC; value = -0.139
Strand = CACGATGC; value = 0.0866
Strand = CGCCTACC; value = 0.211
Strand = GGCGGATA; value = 0.362
Strand = ATATTTCG; value = -0.163
